Assay results of several laboratories.
Each numbered part is a random draw from the data of one study; scales do not carry over between parts.

Series 1
Target: Interferon regulatory factor 5, full length, phosphomimetic (IRF5, Homo sapiens, UniProt Q13568-2, residues 1-514, S451D/S453D/S456D/S462D)
Method: protein-binding microarray
Molecule type: double-stranded DNA, one strand shown
Sample: in vitro
Concentration: 940 nM top
Setting: 60-bp whole probe
Added: salmon DNA 0.4 mg/ml
Relative to: random background probes
Reading: higher = stronger binding
All sequences stand within: GCCTAGCAC … GTCTTGATTCGCTTGACGCTGCTG
Sequence | fitted relative affinity [z-score]
AGATCCATGCTCTGTCGCAGGGTGCTA | -0.477
AGATACCTTTAACAGTGCCTGTGCTAG | -0.0904
TTCGGACTGGGGTATCGGTTAGTGCTA | 2.9
GACGCTTTCGACTATCGGGACGTGCTA | 2.82
TTAGATCTCCTTATCCTTTAGTGCTAG | 0.558
TTAGGCATCGGGTTTCGGTTAGTGCTA | 5.54
GACGGTTCCTTTTTCCTGACGTGCTAG | 0.753
TCACACCAGAGGGCGCTGTGGTGCTAG | -0.287
GACGGTCTCGGTATCGAGACGTGCTAG | 5.66
GACGGTATCAGACTGGGGACGTGCTAG | 0.481
TTTGGTCTCCTTATCCTTTAGTGCTAG | 1.18
TTAGGACTGGTTTTCGGTTAGTGCTAG | 1.82
GACGGTTCCGGTCTCGGGACGTGCTAG | 2.75
TTAGGTATCGGGTATCGGTGAGTGCTA | 7.1
AACGGACTGGGGTTTCGGGACGTGCTA | 1.55
TTAGGTTCCGGGTATCGGTTAGTGCTA | 4.01
GCCGGACTGGGGACTGGGGACGTGCTA | -0.207
TTAGGACTGCTACTCCTTTAGTGCTAG | -0.229
GACGGTATCCGGTATCGGGACGTGCTA | 1.53

Series 2
Target: RNA binding protein fox-1 homolog 2, RRM domain, GST-SBP tag (RBFOX2, Homo sapiens, UniProt O43251-10, residues 100-194)
Method: RNA Bind-n-Seq
Molecule type: RNA
Sample: in vitro
Concentration: 365 nM
Setting: natural RNA segment, single round, ends assumed
Relative to: no-protein control
Reading: higher = stronger binding
All sequences stand within: GGGAGUUCUACAGUCCGACGAUC … UGGAAUUCUCGGGUGCCAA
Target sequence (chain): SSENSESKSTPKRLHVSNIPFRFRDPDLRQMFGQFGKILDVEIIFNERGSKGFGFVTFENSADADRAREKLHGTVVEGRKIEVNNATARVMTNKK
Sequence | RBNS enrichment (R)
CCUGACCCCACCUAUCGUCUUCUGCUAAGGGACAGUACAGAAGCUGCUGUCUGGGCUGUAAAGUCUGGAAGGCAUUGGAACUUCUCUGUGGAGUGUAUUAGCAUUCAUCU | 0.396
UUUACUAACAAGUAGACUAAUGUAGACAUUCACAGACGGGAUAGCGCAGAAGCAUCUUCACACGACAAGUCUCCAAAAAAAAAAAGCUAAUUCAGAGAGGGCGGGAGGAA | 0.897
CUUCAUCCAGAAUGAGCAAAACACUGUCCAGUCUUUGUUACGAUUUUGUAAUAAAUGUGUACAUUUUUUUUAAAUUUUGGACAUCACAUGAAUAAAGGUAUGUAUGUACG | 0.263
CUGCGGCCCGCCCAUCUGCGCUAGCUGGCCUUCACGCUCUUGAUCGUCUUUCCUUUGUAUUGGAGAAGGACUGGGUCAGAGAUCUGUUGGAGAGAGAGAAUAAAGAGAUU | 0.534
UACUGUCUGCGGGUUCUUUUACCUGCUCUCCCUCAGUGAGUCCUCAACCACCCUGGGCCCAGAAACAGAGGCCUGCCGAGGGGAGGAGCCUGGCCUCUGUCCACCCGUCA | 0.489
CUUCCUUCAUCCCAUAUGUAGGUAGCCUUGCUUGACAAAUGUUUCUUCUAACUCUCCUUCUUCUGAAUUGUGCAGAGACUCUGUUAACUUCCCUUUUUGCACUUAGAUAA | 0.34
UAGCUAUCUGGGACAUUAUUGGCAGUGGGCCCUGGAGGCCAGUCCCUAGCCCCCCUUGCCCCUUAUUUCUUCCCUGCUUCCCUCGAACCCAGAGAUUUUUGAGGGAUGAA | 0.357
AUUCAGCUACUCAGAUAAAUUCAGAAUGGGUCAAGGCACCUGCCUGUUUUUGUUGGUGCACAGAGAUUGACUUGAUUCAGAGAGACAAUUCACUCCAUCCCUAUGGCAGA | 0.498

Series 3
Target: Ras GTPase-activating protein-binding protein 1, full length (G3BP1, Homo sapiens, UniProt Q13283)
Chain of UniProt Q13283 (whole entry, looked up): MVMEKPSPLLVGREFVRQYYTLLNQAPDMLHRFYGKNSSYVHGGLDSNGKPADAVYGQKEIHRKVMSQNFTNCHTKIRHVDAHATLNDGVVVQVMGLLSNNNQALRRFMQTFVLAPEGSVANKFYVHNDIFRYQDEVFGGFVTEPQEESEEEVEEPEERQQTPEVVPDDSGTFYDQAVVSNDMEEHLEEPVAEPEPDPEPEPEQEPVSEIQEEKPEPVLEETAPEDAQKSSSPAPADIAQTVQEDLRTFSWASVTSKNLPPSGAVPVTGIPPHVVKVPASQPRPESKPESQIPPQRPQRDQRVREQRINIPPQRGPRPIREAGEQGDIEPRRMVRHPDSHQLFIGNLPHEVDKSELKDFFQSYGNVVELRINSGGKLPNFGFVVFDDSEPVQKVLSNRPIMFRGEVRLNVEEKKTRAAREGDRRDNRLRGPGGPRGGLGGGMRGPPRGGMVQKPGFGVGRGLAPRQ
Method: RNA Bind-n-Seq
Molecule type: RNA
Sample: in vitro
Concentration: 200 nM
Setting: whole 134-nt RNA, ends assumed
Added: 150 mM LiCl
Relative to: input library
Reading: higher = stronger binding
Each molecule: 7-deaza-guanosine replaces G
All sequences stand within: GGGAGUUCUACAGUCCGACGAUC … UGGAAUUCUCGGGUGUCAAGG
Sequence | log2 enrichment
GCAGGAAGUAAAAACAAAUGGAAAUGCUUCGGAUAGUGGCAGGGGUGGGGGUUGCUAAGGUAAGGGUGGGAUGGGAGUGGGUAAAGAGUU | 0.265
GCAGGAAGUAAAAACAAAUGGAAAUGCUUCGGAUAGUGGCAGGAGUGGGGGUUGCUAAGGAAAGGGUGGGAUGGGAGUGGGUAAAGAGUU | 0.182
AGUCCUGUGCUACACAUCGUAUGUACCGAAUCGGGGUUUUGGUUUUGGGGUUUUGGGGAAAGUAUUAUGUUACGCCGUUCGGAUCUGCAC | 0.561
CCAGAGCCAGAGAGCUUGGGCCCUGGGACGCCUGGGUUCCCCGAGCAGGAGGAAGACGAACUUCACCGCACCCUGGGCGUGGAGCGGUUU | -1.74
ACCAUGCAGGAGGGCAUCUUUGGGAAGUGGGGCAAGGGGGGGAUAGGGAGGGGGGUAACACUUUGGGAACAGGUGGUCCCAGGUCGUUUC | -0.108
AGUCCUGUGCUACACAUCGUAUGUACCGAAUCGGGGAGGGGUGGGGAAAAAAAGGGGAAAGUAUUAUGUUACGCCGUUCGGAUCUGCACU | 0.382
AAGUCCUGUGCUACACAUCGUAUGUACCGAAUCGGGGUUUGGGGAAAGGGGAGGGGAAAGUAUUAUGUUACGCCGUUCGGAUCUGCACUU | 0.653
CUCAAGUCCUGUGCUACACAUCGUAUGUACCGAAUCGGGUGGGUGGGAAAGGGAAAGUAUUAUGUUACGCCGUUCGGAUCUGCACUUCCA | -0.059

Series 4
Target: Sal-like protein 4, full length isoform B (SALL4, Homo sapiens, UniProt Q9UJQ4-2, residues 1-616)
Method: universal PBM
Molecule type: double-stranded DNA, one strand shown
Sample: in vitro
Concentration: not given
Setting: 8-mer, flanks averaged, mean of replicates
Reading: higher = stronger binding
Sequence | E-score
AATAAAGT | 0.271
CCCCGAAG | -0.14
AGCAGTAT | 0.059
ATGATGAC | 0.0639
AAAACAAG | 0.256
TAATGCAA | 0.278
AAGTGCTG | -0.0107
CCGCAGTA | -0.105
CGGTCTTA | -0.0786
GCAATAGA | 0.08
CGAGTCCG | -0.0711
AAGACTCG | -0.111
CGTGCACC | -0.22
CGGCTTCC | -0.298
ACTCGAGC | -0.234
CATAAGGA | 0.0588
GATAATGA | 0.288
CAAGACTA | 0.173
AGACGTAA | 0.0713

Some of these lines once more (series 1):
Sequence | fitted relative affinity [z-score]
AACGGACTGGGGTTTCGGGACGTGCTA | 1.55
TTAGGTTCCGGGTATCGGTTAGTGCTA | 4.01
TTAGGTATCGGGTATCGGTGAGTGCTA | 7.1
TTAGATCTCCTTATCCTTTAGTGCTAG | 0.558
AGATCCATGCTCTGTCGCAGGGTGCTA | -0.477
GCCGGACTGGGGACTGGGGACGTGCTA | -0.207
TTCGGACTGGGGTATCGGTTAGTGCTA | 2.9
